Results collected from several papers.
Each numbered part is a random draw from the data of one study; scales do not carry over between parts.

Sample 1
Target: Eukaryotic initiation factor 4A-I (EIF4A1, Homo sapiens, UniProt P60842, residues 1-406, full length assumed)
UniProt P60842, sequence (whole entry, looked up): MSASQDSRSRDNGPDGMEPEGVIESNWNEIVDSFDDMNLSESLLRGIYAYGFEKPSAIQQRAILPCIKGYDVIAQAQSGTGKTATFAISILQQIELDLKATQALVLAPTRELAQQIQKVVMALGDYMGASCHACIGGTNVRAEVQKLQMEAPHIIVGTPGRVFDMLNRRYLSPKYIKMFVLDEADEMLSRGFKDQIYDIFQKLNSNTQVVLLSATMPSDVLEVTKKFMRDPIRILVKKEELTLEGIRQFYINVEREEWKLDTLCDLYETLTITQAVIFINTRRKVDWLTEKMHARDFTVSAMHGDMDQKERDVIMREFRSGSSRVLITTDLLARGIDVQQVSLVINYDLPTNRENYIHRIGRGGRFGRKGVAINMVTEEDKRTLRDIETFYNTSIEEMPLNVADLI
Technique: RNA Bind-n-Seq
Molecule type: RNA
Sample: in vitro
Concentration: 15 pmol
Notes: 4-mer, random 30-nt RNA, single round
Added: 3 µM RocA, 2 mM AMP-PNP
Reference: mean of 4-mers
Reading: higher = stronger binding
`UUAC` — result for “4-mer enrichment Z-score”: -1.04.
`CGCC` — result for “4-mer enrichment Z-score”: -0.77.
For `AGCG`, “4-mer enrichment Z-score” read 0.733.
`AUAG` — result for “4-mer enrichment Z-score”: 0.595.
For `AGUU`, “4-mer enrichment Z-score” read 0.581.
`ACCU` — result for “4-mer enrichment Z-score”: -1.04.
`GGGG`: “4-mer enrichment Z-score” 2.27.
`GUUA`: “4-mer enrichment Z-score” 0.369.

Sample 2
Target: RNA binding protein fox-1 homolog 2, RRM domain, GST-SBP tag (RBFOX2, Homo sapiens, UniProt O43251-10, residues 100-194)
Technique: RNA Bind-n-Seq
Molecule type: RNA
Sample: in vitro
Concentration: 365 nM
Notes: natural RNA segment, single round, ends assumed
Reference: no-protein control
Reading: higher = stronger binding
All sequences stand within: GGGAGUUCUACAGUCCGACGAUC … UGGAAUUCUCGGGUGCCAA
Construct (chain): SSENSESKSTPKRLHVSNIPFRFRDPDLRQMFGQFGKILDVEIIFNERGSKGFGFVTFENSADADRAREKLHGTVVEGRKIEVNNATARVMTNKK
For `GAGAUCAGUCUAUCACCCAGGCUGGAGUGCAGUGGUGACAUCAUAGCUCACUGUAACUUCUCCCAUACUCUACCAAUCCUCCUGCCUCAGCAUCCAGACUAGCUGUGAUU`, “RBNS enrichment (R)” read 2.63.
`UUCAGAUGAGGCAACAUUUUCUUGAGAUAAUUACCCAAGUUUCAUCCAUGUUGAAUGGUACAAAAUAUUUCUGUGAAACUAACAGGAAGAUAUUUUCAGAUAACUAGGAU` — result for “RBNS enrichment (R)”: 0.324.
`AAUAAGCGUGCUAAAUUAAAUUGUCUUAAGGUUUUUCCACUUCAUUUUGUGACUUUGUGUGGUUCGAAUUUCUCAGUAUUUUAACCAGUGUGUUGAUGUUAAAGUCAAAG`: “RBNS enrichment (R)” 2.98.
For `ACCCGCUGCGUGUGUGUGCGCGCGCGUGUACGUGUGGCCCCACAUCCGCCGCCUUCCACGCUAGGAUGUAAGAGGUCGCCUCCUAUUGUACAUUUGGGGAAAGCCUUGGG`, “RBNS enrichment (R)” read 0.318.
For `UUCCAGAAAACUGUCACAGAGCACACGCACAAAGGCCUUCGCUGUAGGGCCCAACAGGGACAGGAGACUUGAGGACACCUGUCAUCAGCACUGGUGUCUAUUCCACAAGA`, “RBNS enrichment (R)” read 0.321.
`UGAAAGAAGCAAUAGUAACAAUCUUAUAUUGGAUCAUGGGGGAAGCAAAUGUGUGUAUUUUAAGUGAGUUCCUGCGAGUCAUACACUGCGAUGAUGCUCCGCCUUUACCC`: “RBNS enrichment (R)” 0.53.
Under “RBNS enrichment (R)”, `CUUUACAGUUUUUUUCUUUGUGUAGUAUCUUGAAAUCCUGGAAAAUUCUAUGGAAUAGUUCUGUAUAUAGGGCACAAGUAAAGGCAUUGUCCAAAGUUUAUUUAUUUAUU` is recorded as 0.462.
For `UUUUUAGUCUAGCCUGUUUGAUUACUUGUAAAUCUCUGCUAGAAGGAGAGAAUUUUCCAGACAACUGAAUGAAUGAUAAUCCUGGAAGUCAGGUCUAGGAUGAUUAGGGU`, “RBNS enrichment (R)” read 1.

Mixed results
DDX17: DDX17 (Homo sapiens, UniProt Q92841)
For `SNX2 (Homo sapiens, UniProt O60749)`, cross-linked residues read “K346 to K230” (SNX6 (Homo sapiens, UniProt Q9UNH7); cross-linking MS; cell fractions; added: DSSO).
Under “z-score of log IC50”, `AENCYNLEI` is recorded as 0.38 (HLA class I histocompatibility antigen, A alpha chain, allele A*80:01 (Homo sapiens, UniProt P04439); peptide-MHC binding; peptide; direction not given).
Under cross-linked residues, `SNRPA1 (Homo sapiens, UniProt P09661)` is recorded as “K56 to K64” (SF3A3 (Homo sapiens, UniProt Q12874); cross-linking MS; cell fractions; added: DSSO).
`DDX5 (Homo sapiens, UniProt P17844)` — result for cross-linked residues: “K340 to K592” (DDX17; cross-linking MS; cell fractions; added: DSSO).
Under cross-linked residues, `CCDC14 (Homo sapiens, UniProt Q49A88)` is recorded as “K821 to K592” (DDX17; cross-linking MS; cell fractions; added: DSSO).

Repeated from above (mixed results):
Under cross-linked residues, `CCDC14 (Homo sapiens, UniProt Q49A88)` is recorded as “K821 to K592” (DDX17; cross-linking MS; cell fractions; added: DSSO).
Under “z-score of log IC50”, `AENCYNLEI` is recorded as 0.38 (HLA class I histocompatibility antigen, A alpha chain, allele A*80:01 (Homo sapiens, UniProt P04439); peptide-MHC binding; peptide; direction not given).
For `SNX2 (Homo sapiens, UniProt O60749)`, cross-linked residues read “K346 to K230” (SNX6 (Homo sapiens, UniProt Q9UNH7); cross-linking MS; cell fractions; added: DSSO).
